# Measured values gathered from unrelated publications.
# Compare with care: the assays were run in different laboratories. Numbers after ± are the reported error.
SMILES,test,system,conditions,half-life [h]
C=CC(=O)N(C)CCOc1c(N)ncnc1-c1cc(F)cc(NC(=O)c2ccc(C3CC3)cc2F)c1C,,"human, whole blood","oral, 100 mg, single ascending dose, median",0.91
CCN1CCN(Cc2ccc(Nc3ncc(F)c(-c4cc(F)c5nc6n(c5c4)[C@H](C)CCC6)n3)nc2)CC1,,"human, plasma","400 mg single dose, mean",39.9
CCCCCCCOc1ccc(CCC(N)(CO)CO)cc1C(F)(F)F.Cl,,"healthy human males, plasma","oral, 0.5 mg, day 21",386
Cn1cncc1[C@@](N)(c1ccc(Cl)cc1)c1ccc2c(c1)c(-c1cccc(Cl)c1)cc(=O)n2C,non-compartmental analysis,"human, plasma","oral, 200 mg/m^2, median, first cycle dose",5
CCN1CCN(Cc2ccc(Nc3ncc(F)c(-c4cc(F)c5nc(C)n(C(C)C)c5c4)n3)nc2)CC1,,"healthy human, fasted, plasma","oral, 200 mg, 2 x 100 mg capsules",25.4
O=C(O)C[C@H](O)C[C@H](O)/C=C/c1c(C2CC2)nc2ccccc2c1-c1ccc(F)cc1,,"OATP1B1/1B3 humanized mouse, plasma","oral, 5 mg/kg",2.6
CC#CC(=O)N1CC[C@@H](n2c(=O)n(-c3ccc(Oc4ccccc4)cc3)c3c(N)ncnc32)C1,,"human, fasting, plasma","oral, 160 mg once daily, cycle 1 day 28",~5.4
NC(CO)(CO)CCc1ccc(Sc2cccc(OCc3ccccc3)c2)cc1Cl,,"human, whole blood","oral, 3 mg, mean, together with: itraconazole 200 mg once daily",111
COc1ccc([C@@H](O)c2cc(-c3ncnc4cc(N5CCOCC5)ccc34)c(F)cc2Cl)nn1,,"human, plasma","oral, 150 mg once daily, single dose, geometric mean",6.56
CC[C@H](C)CCCCC(=O)N[C@@H](CCN)C(=O)N[C@H](C(=O)N[C@@H](CCN)C(=O)N[C@H]1CCNC(=O)[C@H]([C@@H](C)O)NC(=O)[C@H](CCN)NC(=O)[C@H](CCN)NC(=O)[C@H](CC(C)C)NC(=O)[C@@H](Cc2ccccc2)NC(=O)[C@H](CCN)NC1=O)[C@@H](C)O,,"human, long-term IHD, plasma","intravenous, 0.75 mg/kg, single 1-h infusion,, arithmetic mean",15.2
CC#CC(=O)N1CC[C@@H](n2cc(-c3ccc(Oc4c(F)cccc4F)cc3)c3c(N)n[nH]c(=O)c32)C1,,human patients,"oral, 100 to 300 mg, monotherapy",2.24
CC1(COc2ccc3c(c2)ncn3-c2ccc3cccc(N4CCC(N)CC4)c3n2)COC1,,"human patients, recurrent/progressive HGG or DIPG, serum","oral, 170 mg/m^2, day 28, median",5.9
C#C[C@]1(COP(=O)(O)O)O[C@@H](n2cnc3c(N)nc(F)nc32)C[C@@H]1O,measured: islatravir triphosphate,"human, PBMC","oral, 200 mg single dose",112
N#Cc1cc(NC(=O)[C@H]2c3ccccc3C(=O)N(CC(F)(F)F)[C@@H]2c2cccnc2)ccc1F,,"human, plasma","oral, 600 mg, fed, median, interim",18.7
COc1cc(C(=O)NC2CCN(C)CC2)c(F)cc1Nc1ncc(C(F)(F)F)c(Oc2cccc3c2C(=O)N(C)C3)n1,,"human patients, plasma","oral, 10 mg single dose, geometric mean",18.8
CC(C)(Sc1ccncc1-c1ccc(C#N)c2ccccc12)C(=O)O,,human,"oral, 10 mg once daily, together with: febuxostat 0 mg",20.3
CN(C)N=Nc1[nH]cnc1C(N)=O,,"human patients, plasma","intravenous, 1000 mg/m^2 over 1 h, cycle 1 day 1, given alone",2.55
Cn1nnc2c(C(N)=O)ncn2c1=O,,"human patients, plasma","oral, 20 mg/m2, day 5, dose level DL2, median, together with: talazoparib 400 µg/m2",2.8
C=CC(=O)NC1CCN(c2ncc3ncnc(Nc4ccc(Oc5ccc6c(c5)ncn6C)c(C)c4)c3n2)CC1,,"human, male, plasma","oral, 30 mg single dose, fed, geometric mean",34.9
O=C(O)CCC(=O)O.[2H]C([2H])([2H])Oc1cc(C)c2[nH]ccc2c1CN1CC[C@@H](C2CC2)C[C@H]1c1ccc(C(=O)O)cc1,"LC-MS/MS, mean","human, plasma","50 mg, single dose, fasting",21.1
CO[C@@H]1[C@H](OC(=O)N2CC(CCN3CCOCC3)C2)CC[C@]2(CO2)[C@H]1[C@@]1(C)O[C@@H]1CC=C(C)C,,"humans, plasma","subcutaneous, 1.8 mg twice weekly, fifth dose",0.85 ± 0.19
Cc1cc(OCCOCCC(F)(F)P(=O)(O)O)ccc1CCc1cnc2c(N)nc3cc(CCC(=O)O)ccc3c2c1,,"human, serum","intratumoral, 600 µg every 2 weeks, cycle 1 day 1",30.3
CCCCOc1nc(N)c2c(n1)N(Cc1cccc(CN3CCCC3)c1)CC(=O)N2,,human,"oral, 2 mg, mean",18
NCCCS(=O)(=O)O,,"human, plasma","oral, 256.5 mg once daily, day 1, capsule, fed",10.1
CO[C@H]1C[C@@H]2CC[C@@H](C)[C@@](O)(O2)C(=O)C(=O)N2CCCC[C@H]2C(=O)O[C@H]([C@H](C)C[C@@H]2CC[C@@H](OC(=O)NCCOCCOCCOCCOCCOCCOCCOCCOCCC(=O)N3CCc4cc(Cn5nc(-c6ccc7oc(N)nc7c6)c6c(N)ncnc65)ccc4C3)[C@H](OC)C2)C[C@@H](O)[C@H](C)/C=C(\C)[C@@H](O)[C@@H](OC)C(=O)[C@H](C)C[C@H](C)/C=C/C=C/C=C/1C,,"human, plasma","intravenous, 8 mg, cycle 1 day 15, arithmetic mean",6.7
CC(C)NC(=O)COc1cccc(-c2nc(Nc3ccc4[nH]ncc4c3)c3ccccc3n2)c1,,"human, male, fed, plasma","oral, 200 mg, day 3, geometric mean",~6
C#Cc1cccc(Nc2ncnc3cc(OCCOC)c(OCCOC)cc23)c1,,"human patients, plasma",oral,~20
C[C@H]1[C@H](OC(=O)CCC(=O)O)O[C@@H]2O[C@@]3(C)CC[C@H]4[C@H](C)CC[C@@H]1[C@@]24OO3,,"human, both sexes, plasma","oral, dose not given, fixed-dose combination",0.48
Cl.[2H]C([2H])([2H])CC(=O)c1cnc(NC(=O)C2CC2)cc1Nc1cccc(-c2ncn(C([2H])([2H])[2H])n2)c1OC,geometric mean,human,"oral, 5 mg single dose, fasted, liquid",8.66
CC1(C)CC[C@]2(NC(=O)C(C)(F)F)CC[C@]3(C)[C@H](C(=O)C=C4[C@@]5(C)C=C(C#N)C(=O)C(C)(C)[C@@H]5CC[C@]43C)[C@@H]2C1,geometric mean,"human, plasma","oral, 150 mg single dose, given alone",89.8
CC(C)c1nc(N(C)S(C)(=O)=O)nc(-c2ccc(F)cc2)c1/C=C/[C@@H](O)C[C@@H](O)CC(=O)O,,"human, plasma","oral, 10 mg, together with: vepdegestrant 200 mg",20.5 ± 5.08
O=C(COc1ccc(Cl)cc1)NC12CC(c3nnc([C@H]4C[C@@H](OC(F)(F)F)C4)o3)(C1)C2,,"healthy human volunteers fasted, plasma","oral, 15 mg single dose, geometric mean",31.7
CN(C)CCC[C@@]1(c2ccc(F)cc2)OCc2cc(C#N)ccc21,,human,intramuscular,28.8
Cc1noc(C)c1-c1cc(C(O)(c2ccccn2)c2ccccn2)c2nc(C3CC3)[nH]c2c1,,"human patients, plasma","oral, 4 mg, cycle 1 day 8, monotherapy",16.1
Cc1ccc(C(=O)N(CCCN)C(c2nc3snc(C)c3c(=O)n2Cc2ccccc2)C(C)C)cc1 (centres unmarked),,"human, AML patients",intravenous,~17
CC(=O)c1cc(C(=O)N[C@@H](C)Cn2ccc(-c3ccc(C#N)c(Cl)c3)n2)[nH]n1,,"human, fasted, plasma","oral, 300 mg darolutamide tablet, geometric mean",16.9
C[C@@H]1CCO[C@H]2Cn3cc(C(=O)NCc4ccc(F)cc4F)c(=O)c(O)c3C(=O)N12,,"human, normal renal function, plasma","oral, fixed-dose combination",11.3
CC(C)(C)OC[C@@H]1C(=O)NCCN1C(=O)C[C@H](N)Cc1cc(F)c(F)cc1F,,"human, male, plasma","oral, steady state, DP treatment",25.5 ± 3.77
C#C[C@]1(CO)O[C@@H](n2cnc3c(N)nc(F)nc32)C[C@@H]1O,,"human, plasma","oral, 100 mg, single dose, geometric mean",58.8
COc1ncc(-c2nc3c(n2C(C)C)[C@H](c2ccc(Cl)cc2)N(c2cc(Cl)cn(C)c2=O)C3=O)c(OC)n1,,"human, plasma","oral, 200 mg, C1D1, high-dose, median",6.4
CN[C@@H](C)C(=O)N[C@H]1CN(S(=O)(=O)c2cccc(S(=O)(=O)N3CC[C@H]4CC[C@@H](C(=O)NC(c5ccccc5)c5ccccc5)N4C(=O)[C@@H](NC(=O)[C@H](C)NC)C3)c2)CC[C@H]2CC[C@@H](C(=O)NC(c3ccccc3)c3ccccc3)N2C1=O,"LC-MS/MS, noncompartmental","human, plasma","30 mg, cycle 1 day 1",3.02 ± 2.43
C[C@H](Oc1ccc(Br)cc1-c1ccon1)C(=O)O,"LC-MS/MS, non-compartmental","human, plasma","600 mg once daily, day 10, multiple ascending dose, mean",5.37
Cc1nc(-c2ccc(OCC(C)C)c(C#N)c2)sc1C(=O)O,,"human, plasma","oral, 20 mg once daily, together with: verinurad 10 mg",7.23
Fc1ccc([C@@H]2CCNC[C@H]2COc2ccc3c(c2)OCO3)cc1,,"human, all CYP2D6 genotypes","oral, 20 mg, steady state, geometric mean",20
CCCn1cc(C)c2c(=O)[nH]c(-c3cc(S(=O)(=O)N4CCN(CC)CC4)ccc3OCC)nc21,LC-MS/MS,"human, plasma","100 mg, crossover trial, alone",5.71 ± 1.56
COC(=O)N[C@@H](C)CNc1nccc(-c2cn(C(C)C)nc2-c2cc(Cl)cc(NS(C)(=O)=O)c2F)n1,,"human patients, plasma","oral, 450 mg twice daily, day 1, single dose, geometric mean, together with: binimetinib 45 mg once daily",3.98
COc1cc(C(=O)NC2CCN(C)CC2)c(F)cc1Nc1ncc(C(F)(F)F)c(Oc2cccc3c2C(=O)N(C)C3)n1,,"human, Japanese, plasma","oral, 200 mg single dose, geometric mean",21.5

# Some of these lines once more:
SMILES,test,system,conditions,half-life [h]
Cc1ccc(C(=O)N(CCCN)C(c2nc3snc(C)c3c(=O)n2Cc2ccccc2)C(C)C)cc1 (centres unmarked),,"human, AML patients",intravenous,~17
CN(C)CCC[C@@]1(c2ccc(F)cc2)OCc2cc(C#N)ccc21,,human,intramuscular,28.8
COc1cc(C(=O)NC2CCN(C)CC2)c(F)cc1Nc1ncc(C(F)(F)F)c(Oc2cccc3c2C(=O)N(C)C3)n1,,"human patients, plasma","oral, 10 mg single dose, geometric mean",18.8
